# Measurements of several laboratories.
# Parts stem from different laboratories: compare values within a part only. Substitutions count along the parent as printed.

# Block 1
# Target: Histone acetyltransferase KAT6A, winged helix 1, GST fusion (KAT6A, Homo sapiens, UniProt Q92794, residues 1-85)
# Method: protein binding microarray
# Molecule type: double-stranded DNA, one strand shown
# Matrix: in vitro
# Concentration: not given
# Notes: 8-mer, flanks averaged, mean of 2 arrays, mostly near background
# Baseline: not given
# Reading: higher = stronger binding
# Residues (chain): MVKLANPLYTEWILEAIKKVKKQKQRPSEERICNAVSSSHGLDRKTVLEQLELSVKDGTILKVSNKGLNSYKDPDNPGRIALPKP
Sequence,E-score
ATGCCTGC,-0.0551
ACGCTCCG,0.293
CTATCCCA,-0.136
GTAAAGGA,-0.147
GTAGAGCA,-0.236
ATTCTGAG,-0.168
ACCTAGAG,-0.0357
GCAAAGTA,-0.106
ACGAAGCT,-0.119
TAGCACTA,-0.139
GATATTCC,0.0431
CCCACCAA,-0.232
GTTCTCCA,-0.232
CGCGCCCA,0.315
CAAGTGAA,-0.183
CCCAGCTA,-0.174
ACTCCGAA,0.0243
TTCTTAAA,-0.0894
ACCCGATA,0.104
ATCCGCAT,0.144
GCGCCCAA,0.151
AAAACCTG,-0.272
AGCTGTAA,-0.113
CAACTCCG,0.0667
GGAACTAA,0.0431

# Block 2
# Target: RNA binding protein fox-1 homolog 2, RRM domain, GST-SBP tag (RBFOX2, Homo sapiens, UniProt O43251-10, residues 100-194)
# Method: RNA Bind-n-Seq
# Molecule type: RNA
# Matrix: in vitro
# Concentration: 365 nM
# Notes: natural RNA segment, single round, ends assumed
# Baseline: no-protein control
# Reading: higher = stronger binding
# Shared flanks, not repeated: GGGAGUUCUACAGUCCGACGAUC … UGGAAUUCUCGGGUGCCAA
# Target sequence (chain): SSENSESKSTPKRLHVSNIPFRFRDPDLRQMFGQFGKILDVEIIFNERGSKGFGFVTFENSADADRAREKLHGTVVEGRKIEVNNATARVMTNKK
Sequence,RBNS enrichment (R)
AAGGAGACUUGAUAUUCAGAGAAUCAACAUGUUUUUUAAUGACUAACUGUAAAAGGCCCCUACACGUGACGCCAUCUGGACACCCACUCUGGCGGGGGUGGCACCACCCA,0.365
UAAAUGAAGGGCCAGCAUAUAUACUUGCAAGAUAAUUUUCAGCUGCAAGGAUUCAGCACCAGUUAUGUUUGAAUGAACCCUCCUUUUCUCUGAGAUUCUGGUCCCUGGAA,0.803
UCCUCUUGUAAGUGCCCUUCUAAUAAACUUUUCAUGGAAAAGCUCCUGUGCCAGGAGCUCAGUCUGAUUCUUGCUGCUGUCUCUGGGUGGAGAGAAGAUUUAAAAGGGAG,0.547
CACUCUUUUUCUCGGCGAAUGCUUGGAACUGGGUGCUGAGUGCUGGAACUAGCCUUGUGUCUAUGAGGGCACCCUUCAGCUCACUCCACCCCCCAGGUAGACAGGUGCAU,0.597
CUGGUAAUGAGAUUGUAAAUCCAUUUCCUGCGUGUGUUCUCCGCAGGCUUGCCUGAGUGUGUGGGGUGCGCAGGCGCGUGCCUGUCUUUUUGUACUGUAACUACCUCAUG,0.305
CUGACAAUGCCUAGGACUGCCUUACUCCCUUCCCUCAGGCCAGUUCCUGGGCCAGCACUAGCCUUGAAUUUGCUCAUCCGCUUGAAACCUACUGGGGGAUGGGGCCCGUG,1.15
CUUCAAUGCUAGAAAAUCGAGUUGGCAAAAUGGGGUUUGGGCCCCUCAGAGCCCUGCCCUGCACCCUUGUACAGUGUCUGUGCCAUGGAUUUCGUUUUUCUUGGGGUACU,0.34
UGCAUGCACAACUUGUUUUCCCUUGUAACAUUCAUGAUCUCAUUUACAACUCUGAUUUUAAAACAAAAAAAUCUUUACAACAAGCUAUAUAGGGACAUACCAGAUGUUGC,1.52
GGAUUGUUAAACAGUAGAAAUGCAUGUCCUUCCCCAGUAAGCGGAGGACCAAUUUCUCAAGUCUCAGGGUUAUCAUAAAACCUUACUAACUUUAUCUUUCAUUUUUUAAA,0.649
UCACUGGGAUGUGUUUCCCCAGUCAAGGAACAGGGGAUCUUCAGAGUCAUGAAUGUUUUCUUGCCAGGGUCAGUGUUCCCAGGACCUUAGUGCAUGGUCGGGGCAGGAAC,4.94
AGGUGAGCUAGACCCAACCCUUAGCUUUUAGCCUGGCUGUCACCUUUUUAAUUUCCAGAACUGCACAAUGACCAGCAGGAGGGAAGGACAGACAUCAAGUGCCAGAUGUU,0.599
GUGCGCCGCCCUAUAUUGAGGGCUCCAGCUCUCCCUUGGUUUUUGAAAGGGGUUUAUGUAUAAAUAUAUUUUAUGCCUUUUUAUUACAAGUCUUGUUACUCAAUGACUUU,0.652

# Block 3
# Target: CCNB3, cyclin fold, Cln2 fusion (human)
# Method: yeast growth competition, sequencing
# Matrix: yeast
# Notes: weak parent motif
# Baseline: not given
# Reading: higher = stronger binding
# Parent: DNAH7 docking peptide (human); HELFQRLDFDNDG
Change,normalised enrichment score
HELFQRADFDNDG [L7A],-0.234
HELFQRLDFDADG [N11A],0.319
HELFQALDFDNDG [R6A],0.865
HELFQRLDFDNAG [D12A],0.47
HELFQRLAFDNDG [D8A],0.164
HELFQRLDFANDG [D10A],-0.0945

# Block 4
# Target: Sal-like protein 4, full length isoform B (SALL4, Homo sapiens, UniProt Q9UJQ4-2, residues 1-616)
# Method: universal PBM
# Molecule type: double-stranded DNA, one strand shown
# Matrix: in vitro
# Concentration: not given
# Notes: 8-mer, flanks averaged, mean of replicates
# Reading: higher = stronger binding
# Construct (chain): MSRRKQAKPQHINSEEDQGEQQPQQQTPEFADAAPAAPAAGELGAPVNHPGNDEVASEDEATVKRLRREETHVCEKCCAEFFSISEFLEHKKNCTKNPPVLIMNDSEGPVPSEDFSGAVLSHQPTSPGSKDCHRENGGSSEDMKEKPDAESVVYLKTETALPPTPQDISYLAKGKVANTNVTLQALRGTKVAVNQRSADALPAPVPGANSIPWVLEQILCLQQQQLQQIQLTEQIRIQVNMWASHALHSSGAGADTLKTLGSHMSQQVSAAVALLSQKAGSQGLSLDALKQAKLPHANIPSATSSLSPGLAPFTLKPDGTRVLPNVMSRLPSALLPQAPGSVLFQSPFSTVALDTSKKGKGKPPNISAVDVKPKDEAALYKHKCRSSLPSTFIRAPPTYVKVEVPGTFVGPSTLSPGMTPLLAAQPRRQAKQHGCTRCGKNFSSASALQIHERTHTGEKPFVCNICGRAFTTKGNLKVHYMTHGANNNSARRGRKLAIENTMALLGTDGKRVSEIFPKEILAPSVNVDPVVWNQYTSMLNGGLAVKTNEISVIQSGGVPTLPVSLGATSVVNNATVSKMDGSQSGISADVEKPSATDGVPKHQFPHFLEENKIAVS
Sequence,E-score
GATTTCCC,-0.0711
AACCACGC,-0.18
GTTCGACA,-0.0107
GCCTACCA,-0.12
CGCGCGTA,-0.244
GGCTAAAC,-0.172
AATGGTGG,-0.0512
TAATCACA,0.234
GCAATAAC,0.197
CGGGGGGA,-0.332
CCGCAACG,-0.13
ATGGAACG,-0.047
GGTCCTTA,-0.0327
GACTATGA,0.185
CCTAAACA,0.0539
GTACACAC,0.113
CTCCTCCC,-0.342
AAGTATGG,0.103
CGTGCGTC,-0.118
TACGTGAA,0.0775
ACCCGCGG,-0.278
ATATCGGG,0.0845
TCTATTCA,0.268
ACTCCCGC,-0.0414

# Block 5
# Target: ABI1, truncated, D143A, DHFR fusion (Arabidopsis thaliana)
# Method: DHFR PCA, deep sequencing
# Matrix: yeast
# Notes: methotrexate growth selection, single substitutions
# Together with: (+)-ABA 0.0091 µM
# Baseline: wild-type fitted maximum
# Reading: higher = stronger binding
# Parent: PYL1, truncated, DHFR fusion (Arabidopsis thaliana); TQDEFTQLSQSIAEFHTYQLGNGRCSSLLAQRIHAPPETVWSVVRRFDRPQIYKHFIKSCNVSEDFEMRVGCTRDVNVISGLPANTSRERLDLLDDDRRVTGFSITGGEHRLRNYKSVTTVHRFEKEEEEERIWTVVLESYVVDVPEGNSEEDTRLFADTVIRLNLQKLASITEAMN; partner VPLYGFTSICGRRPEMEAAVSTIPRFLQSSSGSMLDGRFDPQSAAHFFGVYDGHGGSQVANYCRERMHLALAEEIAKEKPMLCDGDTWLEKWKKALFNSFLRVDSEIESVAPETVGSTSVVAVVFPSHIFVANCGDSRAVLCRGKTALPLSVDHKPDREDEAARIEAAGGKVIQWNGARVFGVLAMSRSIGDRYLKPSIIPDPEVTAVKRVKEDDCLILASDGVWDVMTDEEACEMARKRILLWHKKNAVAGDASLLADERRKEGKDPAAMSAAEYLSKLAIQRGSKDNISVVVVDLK
Change,relative binding score [%]
R90H,-5.25
E14S,2.33
R74Y,-2.96
F66Q,5.19
V136E,-4.06
E129D,47.1
V100L,-1.59
A158V,54.9
V142H,3.21
V70C,-4.76
Y18S,1.91
P36V,-2.66
K126T,56.2
F56D,0.976
R132K,50.6

# Block 6
# Target: Ras GTPase-activating protein-binding protein 1, full length (G3BP1, Homo sapiens, UniProt Q13283)
# Chain of UniProt Q13283 (whole entry, looked up): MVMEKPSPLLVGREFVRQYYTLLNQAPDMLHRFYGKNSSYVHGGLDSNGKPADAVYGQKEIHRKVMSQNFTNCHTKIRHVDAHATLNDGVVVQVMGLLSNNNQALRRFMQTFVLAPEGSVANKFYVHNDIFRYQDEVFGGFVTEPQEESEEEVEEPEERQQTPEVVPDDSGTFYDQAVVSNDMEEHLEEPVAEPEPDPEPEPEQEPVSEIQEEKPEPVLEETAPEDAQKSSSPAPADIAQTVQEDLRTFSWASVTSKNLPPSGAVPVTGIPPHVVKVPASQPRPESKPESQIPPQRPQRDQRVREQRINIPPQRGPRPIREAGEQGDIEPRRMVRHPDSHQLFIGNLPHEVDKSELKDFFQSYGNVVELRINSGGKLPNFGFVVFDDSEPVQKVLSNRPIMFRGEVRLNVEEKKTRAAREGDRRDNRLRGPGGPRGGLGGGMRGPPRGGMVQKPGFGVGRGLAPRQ
# Method: RNA Bind-n-Seq
# Molecule type: RNA
# Matrix: in vitro
# Concentration: 200 nM
# Notes: whole 134-nt RNA, ends assumed
# Together with: 150 mM LiCl
# Baseline: input library
# Reading: higher = stronger binding
# Each molecule: 7-deaza-guanosine replaces G
# Shared flanks, not repeated: GGGAGUUCUACAGUCCGACGAUC … UGGAAUUCUCGGGUGUCAAGG
Sequence,log2 enrichment
CCUGUGCUACACAUCGUAUGUACCGAAUCGGGGAAAAAAAGGGGUUUUUUUGGGGAGGGGAAAGUAUUAUGUUACGCCGUUCGGAUCUGC,-0.378
ACCAUGCAGGUGGGCGUCUUUGGGAAGUGGGGCAAGGGGGGGAUAGGGAGGGGGGUAACACUUUGGGAACAGGUGGUCCCAGGUCGUUUC,0.545
UCCUGUGCUACACAUCGUAUGUACCGAAUCGGGGAAAAAGGGGAAAAAGGGAAAAAGGGAAAGUAUUAUGUUACGCCGUUCGGAUCUGCA,0.408
CAAGUCCUGUGCUACACAUCGUAUGUACCGAAUCGGAAAGGAAAAAAAGGUUUGGAAAGUAUUAUGUUACGCCGUUCGGAUCUGCACUUC,-2.1
GUCCUGUGCUACACAUCGUAUGUACCGAAUCGGGGAAAAAGGAAAAAGGGAAAAAGGGGAAAGUAUUAUGUUACGCCGUUCGGAUCUGCA,-0.0114
ACCAUGCAAGUGGGCAUCUUUGGGAAGUGGGGCAAGGGGGGGAUAGGGAGGGGGGUAACACUUUGGGAACAGGUGGUCCCAGGUCGUUUC,0.269
CAAGUCCUGUGCUACACAUCGUAUGUACCGAAUCGGAAAGGGGAAAGGGAAAGGGAAAGUAUUAUGUUACGCCGUUCGGAUCUGCACUUC,-0.425
AAGUCCUGUGCUACACAUCGUAUGUACCGAAUCGGUUUUUGGUUUUUGGGUUUUUGGAAAGUAUUAUGUUACGCCGUUCGGAUCUGCACU,-0.371
CACAGACUACACGCACCCACACAGACACAGAGGGAAGGGGUUGGGAUGGGGACAGGGUGCACAGCAGGGCGGGGUAGGACCCCAGCCCCU,0.677
AAGUCCUGUGCUACACAUCGUAUGUACCGAAUCGGCCCCCGGGCCCCCGGCCCCCGGAAAGUAUUAUGUUACGCCGUUCGGAUCUGCACU,-0.502
GAGGAGAUAAUCUCGGAAAAGUUACGGAAACCUGGGAAGUCGGCGAAACCCUACGUUCGGGUGUUUUCGGAAGCAGCCGAAGCGGCCGCC,0.163

# Repeated from above (block 1):
Sequence,E-score
AAAACCTG,-0.272
ATTCTGAG,-0.168
CAACTCCG,0.0667
CAAGTGAA,-0.183
ATCCGCAT,0.144
TTCTTAAA,-0.0894
ACCTAGAG,-0.0357
GTAGAGCA,-0.236
CTATCCCA,-0.136
GCGCCCAA,0.151
ACGCTCCG,0.293
CCCAGCTA,-0.174
CCCACCAA,-0.232
GTAAAGGA,-0.147
AGCTGTAA,-0.113
CGCGCCCA,0.315
